Experimental data gathered from unrelated publications.
Compare with care: the assays were run in different laboratories. Numbers after ± are the reported error.
BCHE: Cholinesterase (BCHE, Homo sapiens, UniProt P06276)
Sequence of UniProt P06276 (whole entry, looked up): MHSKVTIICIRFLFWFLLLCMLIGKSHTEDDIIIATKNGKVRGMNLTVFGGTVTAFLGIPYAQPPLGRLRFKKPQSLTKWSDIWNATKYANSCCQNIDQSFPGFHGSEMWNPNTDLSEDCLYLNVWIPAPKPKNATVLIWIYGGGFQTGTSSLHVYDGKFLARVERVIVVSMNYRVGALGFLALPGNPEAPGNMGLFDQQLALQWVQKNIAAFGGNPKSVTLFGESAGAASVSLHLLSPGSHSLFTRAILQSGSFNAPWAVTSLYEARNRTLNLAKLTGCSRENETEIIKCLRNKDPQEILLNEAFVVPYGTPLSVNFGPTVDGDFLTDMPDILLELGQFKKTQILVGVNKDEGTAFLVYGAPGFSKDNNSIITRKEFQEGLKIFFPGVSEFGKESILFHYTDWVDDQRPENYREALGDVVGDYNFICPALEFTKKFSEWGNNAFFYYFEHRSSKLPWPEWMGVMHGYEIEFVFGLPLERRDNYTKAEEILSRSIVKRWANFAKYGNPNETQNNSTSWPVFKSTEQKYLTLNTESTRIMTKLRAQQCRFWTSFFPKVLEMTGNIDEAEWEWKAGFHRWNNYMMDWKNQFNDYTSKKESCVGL
Mycosin-1: Mycosin-1 (Mycolicibacterium thermoresistibile, UniProt G7CDQ2)
Sequence of UniProt P08254 (whole entry, looked up): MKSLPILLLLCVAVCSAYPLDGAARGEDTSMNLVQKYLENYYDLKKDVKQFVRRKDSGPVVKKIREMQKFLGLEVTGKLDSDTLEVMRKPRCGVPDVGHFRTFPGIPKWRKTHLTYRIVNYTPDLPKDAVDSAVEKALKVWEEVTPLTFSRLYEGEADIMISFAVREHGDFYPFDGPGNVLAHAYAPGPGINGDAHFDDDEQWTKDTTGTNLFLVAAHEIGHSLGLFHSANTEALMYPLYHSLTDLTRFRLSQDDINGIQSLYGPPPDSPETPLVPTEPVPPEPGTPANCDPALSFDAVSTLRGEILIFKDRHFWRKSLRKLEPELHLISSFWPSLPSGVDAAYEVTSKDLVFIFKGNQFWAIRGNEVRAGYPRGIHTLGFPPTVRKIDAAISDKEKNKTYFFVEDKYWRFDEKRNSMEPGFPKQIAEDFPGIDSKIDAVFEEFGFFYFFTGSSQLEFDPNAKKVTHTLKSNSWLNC
Sequence of UniProt P31749 (whole entry, looked up): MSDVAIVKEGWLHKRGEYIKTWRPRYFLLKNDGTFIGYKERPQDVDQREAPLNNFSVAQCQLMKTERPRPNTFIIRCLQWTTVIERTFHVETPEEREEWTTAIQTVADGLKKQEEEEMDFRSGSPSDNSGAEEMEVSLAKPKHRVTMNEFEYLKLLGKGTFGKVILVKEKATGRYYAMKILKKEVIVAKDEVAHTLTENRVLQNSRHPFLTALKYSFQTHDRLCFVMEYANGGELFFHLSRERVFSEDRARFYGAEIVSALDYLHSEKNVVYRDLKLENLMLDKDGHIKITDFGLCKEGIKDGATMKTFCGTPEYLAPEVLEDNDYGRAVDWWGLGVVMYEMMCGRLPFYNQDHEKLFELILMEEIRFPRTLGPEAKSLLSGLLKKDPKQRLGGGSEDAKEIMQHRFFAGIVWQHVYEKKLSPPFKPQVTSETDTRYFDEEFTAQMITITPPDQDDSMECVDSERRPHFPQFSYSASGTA
Sequence of UniProt Q15418 (whole entry, looked up): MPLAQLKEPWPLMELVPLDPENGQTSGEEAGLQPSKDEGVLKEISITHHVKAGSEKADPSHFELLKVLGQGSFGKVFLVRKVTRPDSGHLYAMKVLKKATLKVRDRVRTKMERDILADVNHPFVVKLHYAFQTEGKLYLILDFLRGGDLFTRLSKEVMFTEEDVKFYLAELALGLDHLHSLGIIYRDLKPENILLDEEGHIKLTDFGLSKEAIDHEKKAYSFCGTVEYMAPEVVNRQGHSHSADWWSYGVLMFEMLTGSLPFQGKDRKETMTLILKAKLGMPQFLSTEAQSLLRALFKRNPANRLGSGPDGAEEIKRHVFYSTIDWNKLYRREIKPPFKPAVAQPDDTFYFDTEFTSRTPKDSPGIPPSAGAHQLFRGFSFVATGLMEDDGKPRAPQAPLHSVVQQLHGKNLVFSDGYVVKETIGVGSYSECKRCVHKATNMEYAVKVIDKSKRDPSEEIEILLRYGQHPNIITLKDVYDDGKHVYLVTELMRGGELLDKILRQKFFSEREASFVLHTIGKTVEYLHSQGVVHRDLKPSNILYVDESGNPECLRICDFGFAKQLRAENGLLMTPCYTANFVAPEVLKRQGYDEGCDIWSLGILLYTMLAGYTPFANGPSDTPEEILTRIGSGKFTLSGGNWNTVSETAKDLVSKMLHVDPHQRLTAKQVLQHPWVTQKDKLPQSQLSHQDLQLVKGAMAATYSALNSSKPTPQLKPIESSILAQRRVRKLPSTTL
Sequence of UniProt Q99985 (whole entry, looked up): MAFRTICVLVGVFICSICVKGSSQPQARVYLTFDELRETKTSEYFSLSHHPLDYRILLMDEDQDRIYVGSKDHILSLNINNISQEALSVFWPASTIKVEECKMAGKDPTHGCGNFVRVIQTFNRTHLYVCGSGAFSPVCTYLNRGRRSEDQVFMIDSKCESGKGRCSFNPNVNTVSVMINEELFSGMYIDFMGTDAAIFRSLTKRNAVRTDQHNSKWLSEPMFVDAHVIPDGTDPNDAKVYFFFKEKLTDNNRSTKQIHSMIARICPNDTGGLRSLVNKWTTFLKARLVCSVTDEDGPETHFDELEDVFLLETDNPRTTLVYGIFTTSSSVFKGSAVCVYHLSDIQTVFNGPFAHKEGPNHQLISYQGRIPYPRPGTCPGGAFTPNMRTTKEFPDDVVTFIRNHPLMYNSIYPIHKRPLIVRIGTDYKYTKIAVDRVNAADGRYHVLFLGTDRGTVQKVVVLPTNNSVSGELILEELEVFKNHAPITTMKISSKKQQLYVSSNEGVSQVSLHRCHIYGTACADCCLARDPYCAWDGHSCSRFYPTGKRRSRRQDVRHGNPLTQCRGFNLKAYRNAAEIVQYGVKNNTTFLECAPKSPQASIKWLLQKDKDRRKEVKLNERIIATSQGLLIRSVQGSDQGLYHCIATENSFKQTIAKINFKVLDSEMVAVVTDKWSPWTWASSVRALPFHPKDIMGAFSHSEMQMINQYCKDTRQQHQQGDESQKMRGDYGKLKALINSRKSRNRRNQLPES
Sequence of UniProt Q14524 (whole entry, looked up): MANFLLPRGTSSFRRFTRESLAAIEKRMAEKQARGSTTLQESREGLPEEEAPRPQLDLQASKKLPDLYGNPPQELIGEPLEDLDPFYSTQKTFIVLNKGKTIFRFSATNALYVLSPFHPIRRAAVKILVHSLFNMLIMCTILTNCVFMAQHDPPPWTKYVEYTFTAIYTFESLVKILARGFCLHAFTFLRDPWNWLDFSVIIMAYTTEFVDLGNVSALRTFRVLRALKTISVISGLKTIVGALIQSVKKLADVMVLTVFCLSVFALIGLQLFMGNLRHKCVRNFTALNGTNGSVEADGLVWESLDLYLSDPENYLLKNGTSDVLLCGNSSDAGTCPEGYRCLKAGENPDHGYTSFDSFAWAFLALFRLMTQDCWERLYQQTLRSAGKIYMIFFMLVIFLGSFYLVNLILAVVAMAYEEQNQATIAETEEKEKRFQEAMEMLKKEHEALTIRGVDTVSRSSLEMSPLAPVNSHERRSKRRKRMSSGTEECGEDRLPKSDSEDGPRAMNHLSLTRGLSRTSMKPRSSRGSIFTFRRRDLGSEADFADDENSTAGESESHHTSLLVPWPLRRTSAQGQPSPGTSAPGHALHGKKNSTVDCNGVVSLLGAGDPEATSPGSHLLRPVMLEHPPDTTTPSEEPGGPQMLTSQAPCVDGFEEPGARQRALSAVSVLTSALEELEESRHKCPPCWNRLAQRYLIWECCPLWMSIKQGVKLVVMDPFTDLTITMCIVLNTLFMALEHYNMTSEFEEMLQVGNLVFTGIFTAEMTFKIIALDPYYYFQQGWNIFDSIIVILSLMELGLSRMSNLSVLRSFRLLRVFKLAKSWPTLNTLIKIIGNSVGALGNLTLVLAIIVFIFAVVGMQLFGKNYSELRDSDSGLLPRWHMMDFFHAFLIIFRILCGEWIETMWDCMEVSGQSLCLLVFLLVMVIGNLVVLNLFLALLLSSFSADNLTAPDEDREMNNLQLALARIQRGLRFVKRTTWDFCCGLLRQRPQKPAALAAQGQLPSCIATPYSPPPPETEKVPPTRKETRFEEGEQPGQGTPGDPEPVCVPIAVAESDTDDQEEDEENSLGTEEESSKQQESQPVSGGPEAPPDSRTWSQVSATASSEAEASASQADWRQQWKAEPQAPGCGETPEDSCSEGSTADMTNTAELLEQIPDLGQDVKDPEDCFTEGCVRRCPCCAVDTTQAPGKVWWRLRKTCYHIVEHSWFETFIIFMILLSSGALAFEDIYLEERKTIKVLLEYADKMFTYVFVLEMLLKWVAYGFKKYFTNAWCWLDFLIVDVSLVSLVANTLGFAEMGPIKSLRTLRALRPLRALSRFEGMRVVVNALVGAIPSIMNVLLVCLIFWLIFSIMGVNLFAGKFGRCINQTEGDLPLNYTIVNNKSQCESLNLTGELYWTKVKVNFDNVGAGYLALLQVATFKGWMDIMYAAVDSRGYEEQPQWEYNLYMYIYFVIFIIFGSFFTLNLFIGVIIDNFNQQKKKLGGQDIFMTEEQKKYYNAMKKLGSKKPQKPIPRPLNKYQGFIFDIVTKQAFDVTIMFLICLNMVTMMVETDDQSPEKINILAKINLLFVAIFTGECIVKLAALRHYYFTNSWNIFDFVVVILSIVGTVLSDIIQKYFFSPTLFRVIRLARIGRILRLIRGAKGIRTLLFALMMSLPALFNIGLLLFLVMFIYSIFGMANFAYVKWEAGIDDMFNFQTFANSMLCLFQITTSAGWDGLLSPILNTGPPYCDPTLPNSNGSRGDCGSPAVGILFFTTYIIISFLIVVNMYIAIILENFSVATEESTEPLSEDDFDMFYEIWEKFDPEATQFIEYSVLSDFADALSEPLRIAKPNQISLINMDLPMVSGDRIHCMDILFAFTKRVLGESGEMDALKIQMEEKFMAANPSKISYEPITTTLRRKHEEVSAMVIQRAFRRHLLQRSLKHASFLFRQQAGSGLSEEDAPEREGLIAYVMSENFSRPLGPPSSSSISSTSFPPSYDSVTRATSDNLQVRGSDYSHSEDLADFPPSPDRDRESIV

| Structure (SMILES) | target | test | system | setting | how to read | inhibition |
| --- | --- | --- | --- | --- | --- | --- |
| CC(C)C[C@@H]1NC(=O)[C@H](CCCNC(=N)N)NC(=O)[C@H](CCCCN)NC(=O)[C@H](CC(=O)O)NC(=O)[C@H](C)NC(=O)[C@@H](CO)NC1=O | Disintegrin and metalloproteinase domain-containing protein 8 (Homo sapiens, UniProt P78325) | CD23 shedding, ELISA | COS-7, transfected with target and CD23 | concentration not given, dose-response | – | no effect |
| CC(C)OC(=O)c1ccc(OC(=O)C2CCNCC2)cc1 | clpP (Staphylococcus aureus, UniProt Q2G036) | enzyme activity, inhibitor | – | 1 µM | – | > 50% |
| O=C(C[P+]([Au-][Cl])(c1ccccc1)c1ccccc1)[O][Ti+2][O]C(=O)C[P+]([Au-][Cl])(c1ccccc1)c1ccccc1.c1cc[cH-]c1.c1cc[cH-]c1 | AKT2 (Homo sapiens, UniProt P31751) | kinase activity | – | 10 µM | – | ≥ 50% |
| CC(C)C(O)C(NC(=O)[C@H](Cc1ccc(O)cc1)NC(=O)C(Cc1ccc(O)cc1)[N+](C)(C)C)C(=O)N[C@@H](C)C(=O)O (some centres unmarked) | Gag-Pol polyprotein, protease (gag-pol, Human immunodeficiency virus type 1 group M subtype B, UniProt P04585) | enzyme activity | – | concentration not given | – | inactive |
| O=c1c(O)c(-c2cc(O)ccc2O)oc2cc(O)cc(O)c12 | BCHE | enzyme activity, inhibitor, Ellman | – | 125 µg/mL | – | 53.2% |
| S=C(NCc1ccccn1)NCc1ccccn1 | BCHE | enzyme activity, inhibitor, Ellman | – | 250 µg/mL | – | 59.1% |
| C=CC1CN2CCC1CC2C(O)c1ccnc2ccc(-c3ccccc3)cc12 (centres unmarked) | SCN5A (Homo sapiens, UniProt Q14524) | ion current, inhibitor, patch clamp | HEK-293T | 10 µM, pH 7.3 | – | 44.7% |
| O=C(Nc1ccc(Br)cc1)c1cc(Br)cc(Br)c1O | Semaphorin-3C, with neuropilin-1 (SEMA3C, Homo sapiens, UniProt Q99985) | SEMA3C binding, inhibitor | – | 25 µM, with: SEMA3C | baseline: DMSO | > 50% |
| CC(C)=C1CC[C@]23CO[C@H](C2)[C@@](O)(C(=O)O)CC[C@@H]13 | Dihydroxy-acid dehydratase astD, mitochondrial (astD, Aspergillus terreus, UniProt Q0CPG9) | enzyme activity, inhibitor | – | up to 8 mM | – | no inhibition |
| CC(=O)NC(Cc1ccc(Br)c(Cl)c1)C(=O)N[C@@H](C)C(=O)N1CCC[C@H]1C(=O)N1CCC[C@H]1C(=O)N[C@@H](CCC(=O)O)C(=O)N[C@@H](Cc1c[nH]cn1)C(=O)N[C@@H](CO)C(=O)N[C@H](C(=O)N[C@@H](C)C(N)=O)[C@@H](C)OP(=O)(O)O (some centres unmarked) | RPS6KA1 (Homo sapiens, UniProt Q15418) | enzyme activity, inhibitor | – | 10 µM | – | 0.32% |
| N#C[C@@H](/N=N/c1ccccc1)C(=O)c1ccccc1 | Mycosin-1 | enzyme activity | – | 150 µM | baseline: DMSO control | 59% |
| CCCC[C@@H]1NC(=O)[C@H](Cc2ccccc2)NC(=O)CNC(=O)[C@H](NC(=O)[C@@H](N)Cc2ccc(O)cc2)C(C)(C)SSC(C)(C)[C@H](C(=O)N[C@@H](Cc2c[nH]c3ccccc23)C(=O)NCc2cc(C(F)(F)F)cc(C(F)(F)F)c2)NC(=O)[C@@H]2CCCN2C1=O | OPRM1 (Cavia porcellus, UniProt P97266) | electrically stimulated contraction, agonist | guinea pig isolated ileum | 1 µM | – | 7% |
| N=C(Nc1ccc(NC(=N)N[N+](=O)[O-])cc1)N[N+](=O)[O-] | Mycosin-1 | protease activity, inhibitor, quenched fluorescent peptide | – | 150 µM, with: 20 µM fluorogenic peptide substrate | baseline: DMSO control | 54.7% |
| [Cl][Au-][P+](c1ccccc1)(c1ccccc1)c1cc[cH-]c1.[Cl][Au-][P+](c1ccccc1)(c1ccccc1)c1cc[cH-]c1.[Cl][Ti+2][Cl] | AKT1 (Homo sapiens, UniProt P31749) | kinase activity | – | 10 µM | – | ≥ 50% |
| NCC(CCC(N)C(=O)O)CC1OC(n2cnc3c(N)ncnc32)C(O)C1O (centres unmarked) | SMYD2 (Homo sapiens, UniProt Q9NRG4) | enzyme activity, inhibitor | – | 20 µM | – | > 50% |
| C1N2CN3CN1CP(C2)C3.CC(C)OC(=O)C(n1cccn1)n1cccn1.F[P-](F)(F)(F)(F)F.[Cu+] | P4HB (Homo sapiens, UniProt P07237) | enzyme activity, inhibitor | – | 50 µM | – | ~80% |
| COc1ccccc1/N=N/[C@H](C#N)C(N)=O | Mycosin-1 | enzyme activity | – | 150 µM | baseline: DMSO control | 41% |
| Cc1ccc(N2CC3CCC(C2)N3C)cc1C(=O)N[C@H](C)c1cc(-c2cnn(C)c2)nc2ccccc12 | USP15 (Homo sapiens, UniProt Q9Y4E8) | enzyme activity | – | concentration not given | – | no inhibition |
| COc1cc(OC)cc(C(=O)/C=C/c2ccc(N(C)CCO)cc2)c1 | PTGS2 (Homo sapiens, UniProt P35354) | enzyme activity, inhibitor, ELISA | – | 40 µg/mL | – | 80.7 to 92.5% |
| CCS(=O)(=O)N1CCN(CC(=O)Nc2ccc(/C=C/C(=O)c3ccc(OC)c(OC)c3)cc2)CC1 | BCHE | enzyme activity | – | 1000 µM | – | 30.4 ± 0.823% |
| O=C(O)CCCC(=O)O | BCHE | enzyme activity, inhibitor, Ellman | – | 62.5 µg/mL | – | 40.1% |
| C[C@@](O)(C(F)F)[C@H](NC(=O)c1ccc(C#CC#CC2CC2)cc1)C(=O)NO | Stromelysin-1 (MMP3, Homo sapiens, UniProt P08254) | enzyme activity, inhibitor | – | 30 µM | – | ≤ 30% |
| C/C(=N\OCCCN1CCCCC1)c1ccc(C(F)(F)F)cc1 | SLC6A4 (Homo sapiens, UniProt P31645) | serotonin uptake, inhibitor | – | 10 µM | – | > 50% |
| Cc1cc(C(=O)Nc2nc3cccc(C)c3n2[C@H]2CCCCN(C(=O)/C=C/CN(C)C)C2)ccn1 | Trypanosoma brucei CLK1 C215A | enzyme activity, ADP-Glo | – | concentration not given | – | no inhibition |
| O=C(O)/C=C/c1cc(O)cc(O)c1 | BCHE | enzyme activity, inhibitor, Ellman | – | 500 µg/mL | – | 74.1% |
| O=C(O)/C=C/c1ccc(O)cc1 | BCHE | enzyme activity, inhibitor, Ellman | – | 62.5 µg/mL | – | 48.1% |

A few entries again:
| Structure (SMILES) | target | test | system | setting | how to read | inhibition |
| --- | --- | --- | --- | --- | --- | --- |
| C[C@@](O)(C(F)F)[C@H](NC(=O)c1ccc(C#CC#CC2CC2)cc1)C(=O)NO | Stromelysin-1 (MMP3, Homo sapiens, UniProt P08254) | enzyme activity, inhibitor | – | 30 µM | – | ≤ 30% |
| C/C(=N\OCCCN1CCCCC1)c1ccc(C(F)(F)F)cc1 | SLC6A4 (Homo sapiens, UniProt P31645) | serotonin uptake, inhibitor | – | 10 µM | – | > 50% |
| Cc1cc(C(=O)Nc2nc3cccc(C)c3n2[C@H]2CCCCN(C(=O)/C=C/CN(C)C)C2)ccn1 | Trypanosoma brucei CLK1 C215A | enzyme activity, ADP-Glo | – | concentration not given | – | no inhibition |
